Results collected from several papers.
Every numbered part comes from another study and shows a few of its results, in no order. Substitutions count along the parent as printed.

Block 1
Target: CEBPA, bZIP domain (human)
Method: DHFR protein complementation
Sample: yeast
Setting: single substitutions, most at no-binding floor
Baseline: wild-type JUN-FOS pair
Reading: higher = stronger binding
Quantity: binding fitness
Starting sequence: JUN, bZIP domain (human); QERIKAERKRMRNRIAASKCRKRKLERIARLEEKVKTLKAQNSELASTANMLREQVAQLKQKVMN; partner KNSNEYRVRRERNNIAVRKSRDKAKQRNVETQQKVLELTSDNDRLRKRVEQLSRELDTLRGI
E54N: -1.12 natural log
S43K: -1.34 natural log
N42D: -1.49 natural log
N42C: -1.56 natural log
L38V: -1.5 natural log
Q41P: -1.53 natural log
L31Y: -1.44 natural log
K36L: -1.35 natural log
T37R: -1.41 natural log
L38G: -1.5 natural log
A49E: -1.42 natural log
R30C: -1.4 natural log
K34H: -1.54 natural log
L31F: -1.51 natural log
V56E: -1.45 natural log
A49T: -1.46 natural log
T48Y: -1.47 natural log
A46S: -1.32 natural log
K39S: -1.4 natural log
K39D: -1.34 natural log
M51D: -1.35 natural log
S43P: -1.51 natural log
E44W: -1.37 natural log
L45I: -1.46 natural log
A46G: -1.45 natural log

Block 2
Target: ABI1, truncated, D143A, DHFR fusion (Arabidopsis thaliana)
Method: DHFR PCA, deep sequencing
Sample: yeast
Setting: methotrexate growth selection, single substitutions
Together with: (+)-ABA 17 µM
Baseline: wild-type fitted maximum
Reading: higher = stronger binding
Quantity: relative binding score
Starting sequence: PYL1, truncated, DHFR fusion (Arabidopsis thaliana); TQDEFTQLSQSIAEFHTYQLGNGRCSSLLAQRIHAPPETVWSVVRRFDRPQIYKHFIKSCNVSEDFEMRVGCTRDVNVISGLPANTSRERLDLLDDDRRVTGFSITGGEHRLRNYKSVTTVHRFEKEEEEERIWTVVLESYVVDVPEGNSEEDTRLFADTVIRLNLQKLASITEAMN
G81Y: -11.9%
V137G: -1.21%
I12E: -3.59%
A30P: 20.4%
V161W: 32.2%
I162C: 43.2%
H16W: -21%
R99V: -12.4%
R69E: 73.9%
D65Q: 80.8%
V44S: 1.61%
E174K: 50.5%
T39L: 87.3%
R49D: 39.3%
A175Q: 86.6%
S80Y: 29%
R98W: -13.3%
I79Y: 81.6%

Block 3
Target: CCNA1, cyclin fold, Cln2 fusion (human)
Method: yeast growth competition, sequencing
Sample: yeast
Setting: weak parent motif
Baseline: not given
Reading: higher = stronger binding
Quantity: normalised enrichment score
Starting sequence: RB1 docking peptide (human); PKPLKKLRFDIEG; partner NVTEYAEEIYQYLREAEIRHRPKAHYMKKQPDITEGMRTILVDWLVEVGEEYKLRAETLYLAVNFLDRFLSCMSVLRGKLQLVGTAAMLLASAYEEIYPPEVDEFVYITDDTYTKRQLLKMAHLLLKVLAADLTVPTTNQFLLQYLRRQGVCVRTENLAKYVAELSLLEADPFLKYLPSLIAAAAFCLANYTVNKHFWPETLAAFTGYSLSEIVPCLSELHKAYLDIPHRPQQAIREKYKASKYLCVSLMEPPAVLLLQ
PGPLKKLRFDIEG [K2G]: 0.0322
PKILKKLRFDIEG [P3I]: 0.0714
PKPLKALRFDIEG [K6A]: 0.555
PKPLKKLRFHIEG [D10H]: 0.26
PKPLKKLRFDIWG [E12W]: 0.268
PKPLKKLRFYIEG [D10Y]: -0.15
PKPLKKLRFDIGG [E12G]: 0.409
PKPLKKLRFDSEG [I11S]: 0.445
PKPLKKLRFLIEG [D10L]: 0.0195
PKPWKKLRFDIEG [L4W]: 0.034
PKPLKKLRMDIEG [F9M]: 0.332
PKPLLKLRFDIEG [K5L]: 0.0221
PKPLDKLRFDIEG [K5D]: 0.0804
PKPLKKLRKDIEG [F9K]: 0.403
PKPLKKLIFDIEG [R8I]: 0.0957
PKPLIKLRFDIEG [K5I]: 0.26

Block 4
Target: RING finger protein unkempt homolog, zinc fingers 1-6, GST-SBP tag (UNK, Homo sapiens, UniProt Q9C0B0, residues 30-357)
Method: RNA Bind-n-Seq
Form: RNA
Sample: in vitro
Concentration: not given
Setting: RNA with constant flanks, ends assumed
Baseline: input RNA pool
Reading: higher = stronger binding
Quantity: bound/input enrichment
Residues (chain): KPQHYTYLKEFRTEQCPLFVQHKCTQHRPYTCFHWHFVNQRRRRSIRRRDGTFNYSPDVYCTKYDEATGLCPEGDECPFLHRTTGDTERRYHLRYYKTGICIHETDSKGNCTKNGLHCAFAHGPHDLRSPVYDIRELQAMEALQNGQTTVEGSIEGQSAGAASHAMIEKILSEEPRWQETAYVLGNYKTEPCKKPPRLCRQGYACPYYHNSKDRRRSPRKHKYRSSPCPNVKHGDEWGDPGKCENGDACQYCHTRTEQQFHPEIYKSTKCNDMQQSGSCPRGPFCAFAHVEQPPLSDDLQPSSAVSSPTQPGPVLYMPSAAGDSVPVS
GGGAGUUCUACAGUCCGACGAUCGAACUGUUGAGCUCCUAUGAUGUAGAUGUUAAUCAGAUCAUAAAUACCAUAUCCGAAUGGACCGUUUUGAUUAAGACCAGAGGCGUUAGGCGACCUGAAUUUCAGACUUUACUAACGGAACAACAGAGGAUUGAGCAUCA: 0.102 ratio
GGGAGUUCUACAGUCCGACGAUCAGACAUUUUAAGGACCUCAGGUUCAUUAAAAAGGACUUAGAACUUUUCUCAAAUCCAUUCCGCUUUAAACCGGAAUAUGCGCCUAUUUCUGUAAGAGUGGAGCUAACAAAACUUCAGGCCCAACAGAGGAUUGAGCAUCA: 0.133 ratio
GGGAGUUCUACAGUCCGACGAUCGGAAUAUUCAUUGUGCUGAAUAUUACCCUUGUGUUUGCAGCUGUAUUUAAACUUGAAACAGACCGAACUGUAUGGCCCUUGAUAAGAAUCUAUCGGGGUGGCUUUCUUCUGAUUGAAUUCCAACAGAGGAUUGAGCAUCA: 0.124 ratio
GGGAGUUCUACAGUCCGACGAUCCAGUCCAUACAGACUUGGGGGUGGUUUGGGGUAUUGCUGUGUGUUCUUUAUGCUUAUGUUCUCCGAGUAUGGUCAGAUGGGACAAGACCCCCUCCUGUCUUCUACAUGACAUGGAGAAAGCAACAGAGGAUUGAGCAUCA: 0.31 ratio
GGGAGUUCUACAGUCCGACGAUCCCUCUGUUUAGAAGUGUAGGCAAUACUAUUGAUCCUGUCAUUCUUUUCCAAAAAAUGGGAGCCGGUAAACUUGAGAUGUAUGUGCUUAAUCCAGUCAAGAGCAGCAAGGAAAUGCAGUAUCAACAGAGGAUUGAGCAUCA: 0.542 ratio
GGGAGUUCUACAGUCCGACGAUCCUUCUCAGCAUGGGGAAAUAACAGUUCUCAGGGACAGUCUACUCAAAGCUCUGGAUACCGCCGCAAUUACGCUUAUGCACCCAGCUCCUUAGGUGGAGCCAUGAUUGAUGGACAGUCAGCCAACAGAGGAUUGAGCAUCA: 0.0919 ratio
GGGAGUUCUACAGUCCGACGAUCUAUGGUGCACUUUUUUCGCUAUUUAAGUUGGAUAUUUCUCUACAUUCCUGAAACAAUUUUCCGGUUUUUUUUGUACUAGAAAAUGCAGGCAGUGUUUUCACAAAAGUAACUGUACAGUGACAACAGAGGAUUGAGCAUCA: 0.128 ratio
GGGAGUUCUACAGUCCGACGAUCCUGGGGCCAUUGGAGGCCCACUGUAGGUGGGAGGGAGCUGAUUUUGGGGUGGGGGGUGGGACCCGAGGGCAAUACUGAAGGGGUUAAACAGGUUUUUGCUCCUCAAGAAUUUGUUUGCCUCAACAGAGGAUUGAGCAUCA: 0.431 ratio
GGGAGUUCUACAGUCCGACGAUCUCUUUCCAGUAGUAGCCAGGAAAGGUUAUCUGGGUUAGGGUUUUUGUUGUUUGUAUUCCGCCGGUUUUUGUUUUGUUUUGUUUUGUUUAACCUCUGUGCUGUUUACAUAAACAAAUUGCUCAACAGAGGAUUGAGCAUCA: 1.32 ratio
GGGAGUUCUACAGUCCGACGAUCCUGUUUUGUGAAACAUGUCUACCCAGAAAAGUAGCAUUCUAUAAAUACUAUUAAACAACUCCGCUAUAUUAUUUUUAAGUAUUAAAUUAUAUGUCAAGCAGUUAAAGUGAAUUUCAGAGUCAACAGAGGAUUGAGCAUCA: 2.48 ratio
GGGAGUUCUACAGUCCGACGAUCGAAGAAGCAUGCUUCACUCUCCAGUACUUAAACAAACUGUCCAUGAAACCAGAGCCUCUAUUCCGAAGUGUAGGCAAUACCAUUGAGCCUGUCAUCCUGUUCCAGAAGAUGGGAGUGGGCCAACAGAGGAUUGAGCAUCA: 0.0946 ratio

A few entries again (block 4):
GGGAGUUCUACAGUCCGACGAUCCAGUCCAUACAGACUUGGGGGUGGUUUGGGGUAUUGCUGUGUGUUCUUUAUGCUUAUGUUCUCCGAGUAUGGUCAGAUGGGACAAGACCCCCUCCUGUCUUCUACAUGACAUGGAGAAAGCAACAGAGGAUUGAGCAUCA: 0.31 ratio
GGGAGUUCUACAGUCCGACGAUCAGACAUUUUAAGGACCUCAGGUUCAUUAAAAAGGACUUAGAACUUUUCUCAAAUCCAUUCCGCUUUAAACCGGAAUAUGCGCCUAUUUCUGUAAGAGUGGAGCUAACAAAACUUCAGGCCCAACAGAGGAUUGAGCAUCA: 0.133 ratio
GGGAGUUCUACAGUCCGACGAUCCUUCUCAGCAUGGGGAAAUAACAGUUCUCAGGGACAGUCUACUCAAAGCUCUGGAUACCGCCGCAAUUACGCUUAUGCACCCAGCUCCUUAGGUGGAGCCAUGAUUGAUGGACAGUCAGCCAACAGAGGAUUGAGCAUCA: 0.0919 ratio
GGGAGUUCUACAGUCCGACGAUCCCUCUGUUUAGAAGUGUAGGCAAUACUAUUGAUCCUGUCAUUCUUUUCCAAAAAAUGGGAGCCGGUAAACUUGAGAUGUAUGUGCUUAAUCCAGUCAAGAGCAGCAAGGAAAUGCAGUAUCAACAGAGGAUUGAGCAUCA: 0.542 ratio
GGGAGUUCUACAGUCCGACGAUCGAACUGUUGAGCUCCUAUGAUGUAGAUGUUAAUCAGAUCAUAAAUACCAUAUCCGAAUGGACCGUUUUGAUUAAGACCAGAGGCGUUAGGCGACCUGAAUUUCAGACUUUACUAACGGAACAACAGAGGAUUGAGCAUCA: 0.102 ratio
